Results of several laboratories.
Parts stem from different laboratories: compare values within a part only.
Sequence of UniProt O60285 (whole entry, looked up): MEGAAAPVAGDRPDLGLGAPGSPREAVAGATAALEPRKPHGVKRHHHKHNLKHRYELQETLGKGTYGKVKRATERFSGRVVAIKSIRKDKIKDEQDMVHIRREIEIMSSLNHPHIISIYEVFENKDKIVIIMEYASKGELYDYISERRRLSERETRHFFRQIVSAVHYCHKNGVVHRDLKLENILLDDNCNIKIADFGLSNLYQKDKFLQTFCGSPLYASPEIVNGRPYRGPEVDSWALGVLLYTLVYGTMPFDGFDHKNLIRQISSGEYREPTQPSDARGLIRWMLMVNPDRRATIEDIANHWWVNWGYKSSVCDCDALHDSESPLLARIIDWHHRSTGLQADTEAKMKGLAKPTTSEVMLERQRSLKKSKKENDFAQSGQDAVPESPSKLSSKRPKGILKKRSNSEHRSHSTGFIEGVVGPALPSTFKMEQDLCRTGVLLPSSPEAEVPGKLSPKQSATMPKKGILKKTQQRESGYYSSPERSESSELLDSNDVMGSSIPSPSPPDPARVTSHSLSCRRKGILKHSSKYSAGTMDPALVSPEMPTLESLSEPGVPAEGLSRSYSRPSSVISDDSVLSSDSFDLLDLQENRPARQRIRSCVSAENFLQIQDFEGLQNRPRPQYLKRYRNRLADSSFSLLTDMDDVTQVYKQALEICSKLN
Sequence of UniProt Q8WXR4 (whole entry, looked up): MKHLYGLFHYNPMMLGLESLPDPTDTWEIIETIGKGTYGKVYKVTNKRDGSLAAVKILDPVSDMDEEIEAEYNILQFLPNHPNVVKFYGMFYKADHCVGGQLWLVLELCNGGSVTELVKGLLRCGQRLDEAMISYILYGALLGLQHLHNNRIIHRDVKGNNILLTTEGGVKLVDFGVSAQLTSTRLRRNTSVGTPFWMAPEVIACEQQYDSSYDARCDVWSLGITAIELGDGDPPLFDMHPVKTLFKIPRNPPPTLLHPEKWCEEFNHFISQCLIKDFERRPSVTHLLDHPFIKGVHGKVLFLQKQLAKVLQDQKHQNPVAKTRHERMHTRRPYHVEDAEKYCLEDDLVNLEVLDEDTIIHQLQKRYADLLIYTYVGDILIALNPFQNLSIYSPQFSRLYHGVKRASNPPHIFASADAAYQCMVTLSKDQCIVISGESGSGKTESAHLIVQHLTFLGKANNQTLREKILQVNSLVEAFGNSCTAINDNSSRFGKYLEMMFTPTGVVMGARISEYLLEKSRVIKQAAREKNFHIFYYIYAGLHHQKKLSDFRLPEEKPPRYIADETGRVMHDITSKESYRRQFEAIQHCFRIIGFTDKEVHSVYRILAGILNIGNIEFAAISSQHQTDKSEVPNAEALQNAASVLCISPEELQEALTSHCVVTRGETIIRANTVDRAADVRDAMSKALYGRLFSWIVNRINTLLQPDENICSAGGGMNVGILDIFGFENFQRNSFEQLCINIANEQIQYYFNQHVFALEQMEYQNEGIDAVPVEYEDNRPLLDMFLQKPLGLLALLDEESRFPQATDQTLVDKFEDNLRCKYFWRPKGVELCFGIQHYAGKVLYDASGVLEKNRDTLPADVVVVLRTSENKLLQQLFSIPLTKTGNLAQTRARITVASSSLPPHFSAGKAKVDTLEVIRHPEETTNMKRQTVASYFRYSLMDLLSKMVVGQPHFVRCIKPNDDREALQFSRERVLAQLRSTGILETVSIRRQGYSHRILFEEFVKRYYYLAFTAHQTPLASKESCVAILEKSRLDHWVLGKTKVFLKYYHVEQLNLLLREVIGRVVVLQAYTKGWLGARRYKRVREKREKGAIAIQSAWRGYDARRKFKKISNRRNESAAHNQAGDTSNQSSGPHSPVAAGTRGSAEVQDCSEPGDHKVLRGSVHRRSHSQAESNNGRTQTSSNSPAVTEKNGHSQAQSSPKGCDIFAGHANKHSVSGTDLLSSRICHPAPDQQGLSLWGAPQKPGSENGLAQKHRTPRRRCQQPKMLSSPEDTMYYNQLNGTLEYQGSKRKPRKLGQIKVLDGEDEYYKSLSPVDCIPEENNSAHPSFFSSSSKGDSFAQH
Sequence of UniProt P42684 (whole entry, looked up): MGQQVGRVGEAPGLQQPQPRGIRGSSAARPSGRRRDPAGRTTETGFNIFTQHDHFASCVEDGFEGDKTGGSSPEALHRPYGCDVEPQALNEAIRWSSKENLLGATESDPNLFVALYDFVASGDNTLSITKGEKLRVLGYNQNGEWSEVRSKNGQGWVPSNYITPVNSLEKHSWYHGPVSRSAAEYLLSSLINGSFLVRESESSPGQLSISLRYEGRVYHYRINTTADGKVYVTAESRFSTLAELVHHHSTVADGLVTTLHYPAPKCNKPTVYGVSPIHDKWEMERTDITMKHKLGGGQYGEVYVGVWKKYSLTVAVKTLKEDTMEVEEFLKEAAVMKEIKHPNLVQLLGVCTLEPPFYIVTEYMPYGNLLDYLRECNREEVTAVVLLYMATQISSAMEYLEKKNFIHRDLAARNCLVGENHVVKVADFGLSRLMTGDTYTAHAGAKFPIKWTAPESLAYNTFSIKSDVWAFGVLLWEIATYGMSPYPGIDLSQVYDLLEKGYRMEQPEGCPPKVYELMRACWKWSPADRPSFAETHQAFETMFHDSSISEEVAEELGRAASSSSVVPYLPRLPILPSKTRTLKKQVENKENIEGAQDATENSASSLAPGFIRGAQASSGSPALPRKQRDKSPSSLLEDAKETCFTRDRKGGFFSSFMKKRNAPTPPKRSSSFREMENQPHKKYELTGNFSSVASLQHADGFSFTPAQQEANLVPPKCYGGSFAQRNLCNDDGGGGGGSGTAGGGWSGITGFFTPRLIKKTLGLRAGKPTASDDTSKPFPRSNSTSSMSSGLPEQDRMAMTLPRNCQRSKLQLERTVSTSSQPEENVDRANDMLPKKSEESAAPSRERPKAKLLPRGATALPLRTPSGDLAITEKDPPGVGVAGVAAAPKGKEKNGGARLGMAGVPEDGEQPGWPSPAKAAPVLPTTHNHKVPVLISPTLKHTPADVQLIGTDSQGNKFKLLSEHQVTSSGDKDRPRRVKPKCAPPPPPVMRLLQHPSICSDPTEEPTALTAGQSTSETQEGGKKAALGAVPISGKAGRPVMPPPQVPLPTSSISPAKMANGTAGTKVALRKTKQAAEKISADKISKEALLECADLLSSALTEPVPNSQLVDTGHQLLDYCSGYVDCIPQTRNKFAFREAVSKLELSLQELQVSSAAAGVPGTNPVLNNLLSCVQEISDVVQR
Sequence of UniProt P49761 (whole entry, looked up): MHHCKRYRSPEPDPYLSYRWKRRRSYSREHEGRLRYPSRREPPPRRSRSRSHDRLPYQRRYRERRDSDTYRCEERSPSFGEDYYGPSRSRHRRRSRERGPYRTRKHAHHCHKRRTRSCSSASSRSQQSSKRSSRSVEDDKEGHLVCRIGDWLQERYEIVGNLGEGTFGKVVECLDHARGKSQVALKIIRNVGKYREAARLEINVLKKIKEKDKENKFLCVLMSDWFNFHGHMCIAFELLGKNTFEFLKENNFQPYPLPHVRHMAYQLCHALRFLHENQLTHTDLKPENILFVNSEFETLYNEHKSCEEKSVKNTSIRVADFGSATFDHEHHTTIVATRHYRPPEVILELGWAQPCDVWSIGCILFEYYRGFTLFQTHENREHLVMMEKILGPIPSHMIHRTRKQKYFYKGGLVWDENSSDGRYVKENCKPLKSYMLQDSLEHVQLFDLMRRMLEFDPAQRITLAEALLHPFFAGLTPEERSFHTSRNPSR
Sequence of UniProt Q02750 (whole entry, looked up): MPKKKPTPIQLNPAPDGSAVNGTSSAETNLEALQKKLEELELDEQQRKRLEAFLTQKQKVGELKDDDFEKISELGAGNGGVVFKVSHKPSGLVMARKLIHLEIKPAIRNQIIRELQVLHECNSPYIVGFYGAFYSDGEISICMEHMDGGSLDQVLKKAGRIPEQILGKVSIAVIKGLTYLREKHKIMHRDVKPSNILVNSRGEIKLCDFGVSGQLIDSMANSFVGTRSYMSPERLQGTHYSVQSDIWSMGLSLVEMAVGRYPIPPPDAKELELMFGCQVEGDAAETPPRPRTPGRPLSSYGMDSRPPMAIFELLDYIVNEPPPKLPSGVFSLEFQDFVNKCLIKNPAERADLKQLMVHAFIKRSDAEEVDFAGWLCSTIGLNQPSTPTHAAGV
Sequence of UniProt Q16566 (whole entry, looked up): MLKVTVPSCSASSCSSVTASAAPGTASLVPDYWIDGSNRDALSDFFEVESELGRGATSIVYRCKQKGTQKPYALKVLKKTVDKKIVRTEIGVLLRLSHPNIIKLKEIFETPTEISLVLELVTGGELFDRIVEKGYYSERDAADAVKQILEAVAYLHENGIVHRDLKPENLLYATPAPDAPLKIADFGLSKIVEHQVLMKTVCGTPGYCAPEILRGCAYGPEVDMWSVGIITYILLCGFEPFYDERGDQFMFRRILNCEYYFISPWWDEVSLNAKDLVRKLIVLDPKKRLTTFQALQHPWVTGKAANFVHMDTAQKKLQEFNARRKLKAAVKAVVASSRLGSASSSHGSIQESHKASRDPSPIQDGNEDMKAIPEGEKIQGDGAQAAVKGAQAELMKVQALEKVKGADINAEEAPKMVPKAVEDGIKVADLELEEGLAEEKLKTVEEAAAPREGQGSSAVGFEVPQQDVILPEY
Sequence of UniProt P06493 (whole entry, looked up): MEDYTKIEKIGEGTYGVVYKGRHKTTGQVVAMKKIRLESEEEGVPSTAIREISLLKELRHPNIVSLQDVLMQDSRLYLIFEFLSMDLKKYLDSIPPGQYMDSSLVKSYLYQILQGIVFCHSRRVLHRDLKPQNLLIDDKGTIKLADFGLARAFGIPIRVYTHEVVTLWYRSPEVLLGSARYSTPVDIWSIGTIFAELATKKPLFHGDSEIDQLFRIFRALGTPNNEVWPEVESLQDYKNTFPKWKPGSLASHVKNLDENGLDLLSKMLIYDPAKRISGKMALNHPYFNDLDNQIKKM

Block 1
SMILES: CCC(=O)N[C@@H]1CC[C@H](C(=O)N(C)c2ccc(-c3nc4ccccc4o3)cc2)C1
Observed: cell-free assay
Method: competition with immobilised ligand
Concentration: 1 µM
Endpoint: remaining binding
Mitogen-activated protein kinase kinase kinase kinase 2 (MAP4K2, Homo sapiens, UniProt Q12851): 100%
NUAK family SNF1-like kinase 1 (NUAK1, Homo sapiens, UniProt O60285): 100%
Tyrosine-protein kinase ABL2 (ABL2, Homo sapiens, UniProt P42684): 100%
Phosphatidylinositol 3-kinase C2 domain-containing subunit gamma (PIK3C2G, Homo sapiens, UniProt O75747): 57%
Homeodomain-interacting protein kinase 1 (HIPK1, Homo sapiens, UniProt Q86Z02): 87%
Serine/threonine-protein kinase 32B (STK32B, Homo sapiens, UniProt Q9NY57): 71%
Epidermal growth factor receptor (EGFR, Homo sapiens, UniProt P00533, G719C): 100%
1-phosphatidylinositol 3-phosphate 5-kinase (PIKFYVE, Homo sapiens, UniProt Q9Y2I7): 93%
Casein kinase II subunit alpha' (CSNK2A2, Homo sapiens, UniProt P19784): 100%

Block 2
SMILES: O=C1c2ccccc2-c2nc3nnnn3nc21
Observed: enzyme activity
Mode: inhibitor
Concentration: 0.5 µM
Baseline: control
Endpoint: remaining activity
Rho-associated protein kinase 1 (ROCK1, Homo sapiens, UniProt Q13464): 94.5%
Serine/threonine-protein kinase Nek3 (NEK3, Homo sapiens, UniProt P51956): 111%
Dual specificity mitogen-activated protein kinase kinase 1 (MAP2K1, Homo sapiens, UniProt Q02750): 88.7%
Myosin-IIIb (MYO3B, Homo sapiens, UniProt Q8WXR4): 88.4%
Cyclin-dependent kinase 1, with cyclin A (CDK1, Homo sapiens, UniProt P06493): 48.9%
MAP/microtubule affinity-regulating kinase 4 (MARK4, Homo sapiens, UniProt Q96L34): 88.1%
Tyrosine-protein kinase TXK (TXK, Homo sapiens, UniProt P42681): 90.8%
Serine/threonine-protein kinase PLK3 (PLK3, Homo sapiens, UniProt Q9H4B4): 28.5%
Serine/threonine-protein kinase MARK2 (MARK2, Homo sapiens, UniProt Q7KZI7): 94.2%
Dual specificity protein kinase CLK3 (CLK3, Homo sapiens, UniProt P49761): 81.2%
Misshapen-like kinase 1 (MINK1, Homo sapiens, UniProt Q8N4C8): 91.2%
G protein-coupled receptor kinase 4 (GRK4, Homo sapiens, UniProt P32298): 68.4%
cGMP-dependent protein kinase 2 (PRKG2, Homo sapiens, UniProt Q13237): 140%
Calcium/calmodulin-dependent protein kinase type IV (CAMK4, Homo sapiens, UniProt Q16566): 85.4%

Block 3
Organism: Plasmodium berghei
Mode: inhibitor
Cell line: Huh-7
Strain: GFP-expressing sporozoites, liver stage
Concentration: 10 µM
Time: 24 h
Baseline: untreated control
Endpoint: infection rate
CC(=O)OCC1=C(C(=O)O)N2C(=O)[C@@H](NC(=O)CSc3ccncc3)[C@H]2SC1: 106%
CC(=O)N(O)CCCCCNC(=O)CCC(=O)N(O)CCCCCNC(=O)CCC(=O)N(O)CCCCCN: 39.6%
CO/N=C(\C(=O)N[C@@H]1C(=O)N2C(C(=O)O)=C(COC(N)=O)CS[C@H]12)c1ccco1: 84.2%
O=C(O)CCC(=O)OC[C@@H](NC(=O)C(Cl)Cl)[C@H](O)c1ccc([N+](=O)[O-])cc1: 94.6%

Other studies, line by line
CC(C)n1cnc(-c2ccc(F)cc2)c1-c1ncc(C(=O)Nc2ccc(N3CCN(C)CC3)cc2)[nH]1  patients with Headache (human, idiopathic pulmonary fibrosis; 30 mg once daily, trial, treatment-emergent): 0%
